Measurements pooled from the literature.
A part holds a random share of what one study measured. Substitutions count along the parent as printed.

Series 1 — target: FOS, bZIP domain (human); technique: DHFR protein complementation; matrix: yeast; reference: wild-type JUN-FOS pair; direction: higher = stronger binding
Notes: single substitutions, most at no-binding floor
Parent: JUN, bZIP domain (human); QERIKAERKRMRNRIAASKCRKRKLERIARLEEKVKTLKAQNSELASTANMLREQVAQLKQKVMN; partner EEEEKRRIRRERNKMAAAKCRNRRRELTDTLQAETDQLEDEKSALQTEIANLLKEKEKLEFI
| Change | binding fitness [natural log] |
| --- | --- |
| A29Q | -0.179 |
| E33Q | -0.232 |
| M51T | 0.052 |
| E33M | -0.19 |
| E32R | 0.0289 |
| K39Y | -0.844 |
| K36R | 0.0501 |
| R30P | -0.268 |
| I28R | -0.0836 |
| A49G | -1.01 |
| T37Y | -0.144 |
| A40Y | -0.249 |
| R53W | -1.11 |
| I28A | -0.146 |
| V56P | -1.23 |
| Q41R | -0.274 |
| V35Q | -0.414 |
| E32D | -0.216 |
| L45D | -1.24 |
| R30K | -0.0897 |
| K34A | -0.144 |
| A29P | -0.544 |
| N42M | -0.407 |
| K36V | -0.073 |

Series 2 — technique: universal PBM; molecule type: double-stranded DNA, one strand shown; matrix: in vitro; tested at: 600 nM; direction: higher = stronger binding
Target: Sal-like protein 4, full length isoform A (SALL4, Homo sapiens, UniProt Q9UJQ4, residues 1-1053)
UniProt Q9UJQ4, sequence (whole entry, looked up): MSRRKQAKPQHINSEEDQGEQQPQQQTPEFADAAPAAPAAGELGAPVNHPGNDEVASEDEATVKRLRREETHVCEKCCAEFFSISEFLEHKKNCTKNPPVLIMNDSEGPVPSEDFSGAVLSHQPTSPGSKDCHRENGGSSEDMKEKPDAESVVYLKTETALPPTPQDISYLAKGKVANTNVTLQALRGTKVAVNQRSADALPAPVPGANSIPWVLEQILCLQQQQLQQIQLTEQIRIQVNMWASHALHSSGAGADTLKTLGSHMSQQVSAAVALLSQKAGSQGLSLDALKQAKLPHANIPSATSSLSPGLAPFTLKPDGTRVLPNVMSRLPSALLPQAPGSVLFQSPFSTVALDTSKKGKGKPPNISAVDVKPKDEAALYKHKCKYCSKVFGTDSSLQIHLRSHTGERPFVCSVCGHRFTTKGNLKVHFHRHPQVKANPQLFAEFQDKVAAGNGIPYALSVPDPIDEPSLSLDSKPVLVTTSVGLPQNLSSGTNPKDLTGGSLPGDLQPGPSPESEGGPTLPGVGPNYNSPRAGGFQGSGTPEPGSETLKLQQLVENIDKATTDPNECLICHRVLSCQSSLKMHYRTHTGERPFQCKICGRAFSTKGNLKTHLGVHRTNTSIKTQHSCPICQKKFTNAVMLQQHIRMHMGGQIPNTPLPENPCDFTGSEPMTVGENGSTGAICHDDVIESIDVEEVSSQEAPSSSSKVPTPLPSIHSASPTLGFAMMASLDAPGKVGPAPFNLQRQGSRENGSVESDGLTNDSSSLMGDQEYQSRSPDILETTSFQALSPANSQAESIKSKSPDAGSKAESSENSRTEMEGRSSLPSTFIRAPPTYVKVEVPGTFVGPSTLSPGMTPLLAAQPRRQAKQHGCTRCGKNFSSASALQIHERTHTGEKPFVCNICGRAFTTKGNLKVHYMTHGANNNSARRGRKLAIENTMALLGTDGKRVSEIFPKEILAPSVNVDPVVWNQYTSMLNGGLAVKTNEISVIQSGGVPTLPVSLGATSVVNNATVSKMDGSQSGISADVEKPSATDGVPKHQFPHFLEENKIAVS
Notes: 8-mer, flanks averaged, mean of replicates
| Oligonucleotide | E-score |
| --- | --- |
| ATCATGGC | 0.0348 |
| CGAGAACG | -0.0592 |
| TCGCTGAA | 0.0534 |
| CCCAATCC | -0.243 |
| CTCTTTAA | 0.0657 |
| ATGTGTCC | -0.0756 |
| CCCTTTGC | -0.104 |
| CATGATGA | 0.163 |
| GGACGTGA | -0.171 |
| AAGGGGCC | -0.392 |
| CTCCGAAG | -0.208 |
| ACTTCTTG | -0.0562 |
| ATTCAACG | 0.172 |
| AATGTCCG | -0.025 |
| ATGTTCGA | 0.0384 |
| ACGCCCCC | -0.308 |
| CACCTAGG | -0.187 |
| AGCTATAC | 0.104 |
| AGGACCAC | -0.232 |
| GCTTGGGA | -0.189 |
| AACGACAA | 0.0862 |
| AAAGCTGC | -0.0917 |
| TCGTTTCA | 0.144 |
| AAGTCCAA | 0.194 |
| GTCAGGAA | 0.0584 |

Series 3 — technique: DHFR PCA, deep sequencing; matrix: yeast; with: (+)-ABA 0.11 µM; reference: wild-type fitted maximum; direction: higher = stronger binding
Target: ABI1, truncated, D143A, DHFR fusion (Arabidopsis thaliana)
Notes: methotrexate growth selection, single substitutions
Parent: PYL1, truncated, DHFR fusion (Arabidopsis thaliana); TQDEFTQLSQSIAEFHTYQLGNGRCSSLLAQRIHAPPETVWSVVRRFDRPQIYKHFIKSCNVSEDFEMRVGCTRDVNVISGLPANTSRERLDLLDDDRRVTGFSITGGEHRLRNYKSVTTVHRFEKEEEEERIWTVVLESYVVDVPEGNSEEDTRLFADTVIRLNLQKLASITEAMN
| Change | relative binding score [%] |
| --- | --- |
| P50Y | 2.11 |
| L166H | 12.6 |
| R90K | 6.07 |
| T120I | -4.94 |
| S63W | 2.56 |
| G102R | -2.51 |
| H34S | 24.6 |
| P83K | 20.2 |
| G107E | 16.8 |
| S59K | 41.8 |
| V161E | 0.261 |
| N149P | 2.85 |
| T101R | -8.94 |
| Y141I | -2.86 |
| L8H | 1.07 |
| R155E | 4.44 |
| F66H | 15 |

Series 4 — target: CCNE2, cyclin fold, Cln2 fusion (human); technique: yeast growth competition, sequencing; matrix: yeast; notes: strong parent motif; reference: not given; direction: higher = stronger binding
Parent: SCAPER docking peptide (human); SNARRSLNFGGST; partner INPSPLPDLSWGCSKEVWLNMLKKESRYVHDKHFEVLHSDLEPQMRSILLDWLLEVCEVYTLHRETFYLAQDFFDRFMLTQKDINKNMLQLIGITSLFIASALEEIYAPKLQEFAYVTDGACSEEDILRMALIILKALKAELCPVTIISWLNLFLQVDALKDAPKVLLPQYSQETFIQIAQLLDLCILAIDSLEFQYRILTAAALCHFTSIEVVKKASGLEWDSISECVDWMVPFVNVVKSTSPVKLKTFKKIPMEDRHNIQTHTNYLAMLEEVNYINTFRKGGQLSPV
| Change | normalised enrichment score |
| --- | --- |
| SNARRSLNFGAST [G11A] | 1.35 |
| SLARRSLNFGGST [N2L] | 0.657 |
| SNARRSYNFGGST [L7Y] | 0.188 |
| SNARRSLAFGGST [N8A] | 0.517 |
| SSARRSLNFGGST [N2S] | 1.86 |
| SNARRSLNFGGSI [T13I] | 0.992 |
| SNACRSLNFGGST [R4C] | 0.557 |
| SNARVSLNFGGST [R5V] | 0.208 |
| SNARRSLYFGGST [N8Y] | 0.75 |
| SNARRSLNFCGST [G10C] | 1.42 |
| SNNRRSLNFGGST [A3N] | 0.457 |
| SNARRSLQFGGST [N8Q] | 1.26 |
| SNARRSLNFGGSG [T13G] | 1.44 |
| SNARRSLLFGGST [N8L] | 0.413 |
| SNARRSLWFGGST [N8W] | 1.38 |
| SNARRSLNFGGSW [T13W] | 0.735 |
| SNARRHLNFGGST [S6H] | 2.24 |
| SNARRSLNFGGSL [T13L] | 1.12 |
| SNARRSLNHGGST [F9H] | -0.219 |
| SNPRRSLNFGGST [A3P] | 0.385 |
| SNARRSLNKGGST [F9K] | 0.11 |
| SNARRSLNFGTST [G11T] | 1.91 |
| SNARRWLNFGGST [S6W] | 2.35 |
| SNARRSLNFFGST [G10F] | 0.654 |
| SNARRSVNFGGST [L7V] | 0.155 |

Series 5 — technique: RNA Bind-n-Seq; molecule type: RNA; matrix: in vitro; tested at: not given; reference: input RNA pool; direction: higher = stronger binding
Target: RING finger protein unkempt homolog, zinc fingers 1-6, GST-SBP tag (UNK, Homo sapiens, UniProt Q9C0B0, residues 30-357)
Notes: RNA with constant flanks, human and mouse sites, ends assumed
Constant ends, left off below: GGGAGUUCUACAGUCCGACGAUC … CAACAGAGGAUUGAGCAUCA
Construct (chain): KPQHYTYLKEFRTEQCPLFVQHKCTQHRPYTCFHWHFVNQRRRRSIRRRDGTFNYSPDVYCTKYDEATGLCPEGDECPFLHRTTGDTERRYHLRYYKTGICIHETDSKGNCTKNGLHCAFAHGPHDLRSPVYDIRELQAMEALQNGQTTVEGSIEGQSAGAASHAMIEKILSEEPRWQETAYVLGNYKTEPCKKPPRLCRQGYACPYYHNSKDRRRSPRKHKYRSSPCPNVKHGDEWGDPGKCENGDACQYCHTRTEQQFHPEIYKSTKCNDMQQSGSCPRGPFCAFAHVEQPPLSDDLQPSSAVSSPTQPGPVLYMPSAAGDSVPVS
| Oligonucleotide | bound/input enrichment |
| --- | --- |
| GGGGAACGGGGCUUCGCGGUUCCAACGAUUAAGUUCUGAAGUACUGAUCGAGUUCUGCGUUUCUUCAAUGAGGAACUACAGGCUGAUCUUCUGCCAUAAUCUCAAACAGCCAUAAAUGAC | 0.119 ratio |
| GGUGAAAAAUCAAAUGCCAAAAUAAAGGAUGAAGAUCAUAGUCCAACAUUUGAAAAUUCAGAUUGCACACUGAAAAAAAUGGAUAAAGAAGGUAAAACAUUAAAAAAACAUAAAUUGAAG | 0.631 ratio |
| CCUUCUUCAGUACCCGCCUGAUUCAGGCUGGGGAGCAGCUCGGGUUCGACUACGGGGAGCGCUUUUGGGACGUCAAGGGCAAGCUCUUCAGUUGCCGGUGUGGGUCUUCCAAGUGUCGGC | 0.13 ratio |
| CUCAAUACCAUUCCAUUGUUUGUGCAGUUGCUUUAUUCUCCCAUUGAAAAUAUCCAAAGAGUAGCUGCAGGGGUCCUCUGUGAACUUGCUCAGGACAAGGAGGCUGCAGAGGCCAUUGAA | 0.425 ratio |
| UUGUCCAAAAGGCGGAGUCAGUUAAAACAAGCUGUUGCCAAAAUGGUUCAACAGUGCUGUACUUAUGUUGAGGAAAUCACAGACCUUCCUAUCAAACUUCGAUUAAUUGAUACUCUACGA | 0.0746 ratio |
| UUGCCUUUUCAGAGCAUGAGGUCAGGCUCUGUAUCCCUCCUUUUCCUAGCUGAUAUUCUAACUAGAAGCAUUUGUCAAUUCCUUUGCCUCCCAACUGACAACACACGUUCAUUUUCCAAC | 1.88 ratio |
| GAAGAAGACGAACACUUCGAUGACACAGUGGUUUGUCUUGAUACUUAUAAUUGUGAUCUGCAUUUUAAAAUCUCGAGAGACCGUCUGAGUGCUUCUUCCCUUACUAUGGAGAGUUUUGCU | 0.222 ratio |
| AUAAAAAGGAAGUUGGUUAUACUCGUCAAAAAGUGCCUUCUCUGUAAAGUGGGCGAAGACCUCUGCCGGGAACCUGCGCCCUCCCUGAUGUCACCAGAUCACCUUCUGGACAGUGACAUG | 0.108 ratio |
| CGAUAAUACUUGACCUCUGUGACCAACUAUUGGAUUGAGAAACUGACAAGCCUUGGUUGAUAGCAAGAACCCUUUCAGUUUACAUUGUGACAUUCUGUUGUAAAAAUCAACUAAAAUGCU | 0.177 ratio |
| AGCCAAACUGGGGUCCUGGUAGGCCUUUCAACUCAGCGCACUGAUUUUCUUAUUUUCGUUGUUUUAAAAAGCAGCGACAUUUCUGGGUCUGGUGCUAAUACCCCCUUCCCACCUUCUGGG | 0.112 ratio |
| UUUAGACAAAGAGAAGGGCCUUUUUAUCCAACUUUAAGAUUACUUCAUAAAUAUCCUUUUAUCUUGCCACAUCAGCAGGUUGAUAAAGGAGCCAUCAAAUUUGUACUCAGUGGAGCAAAU | 0.23 ratio |

Single results of other studies
| Substance | target | test | system | conditions | how to read | quantity | value |
| --- | --- | --- | --- | --- | --- | --- | --- |
| PhoQ, residues 284 288 289 292 302 303 GANMMA | PhoP, residues 12 14 15 18 19 NHFRA (Escherichia coli, UniProt P23836) | Sort-seq, measured: YFP reporter | E. coli | PhoQ-PhoP variant library, with: 10 µM Mg2+ | reference: high Mg2+ state, higher = stronger signaling | fold induction | 1.48 |
